Results of several laboratories.
Lines come from different studies, so protocols differ. Values joined by “and” are separate records of one study, mostly repeats; a detail may differ. Numbers after ± are the reported error. In brackets after ≈: the same amount, converted by molar mass.

Compound | organism | test | system | setting | how to read | quantity | value
CC(=O)NC[C@H]1CN(c2ccc(N3CCOCC3)c(F)c2)C(=O)O1 | Streptococcus pyogenes |  | 10 isolates | serum 50% |  | MIC50 | 1 µg/mL (≈ 2.96 µM)
CC1=NN(c2cccc([N+](=O)[O-])c2)C(=O)C1=NNc1ccc(S(N)(=O)=O)cc1 | Saccharomyces cerevisiae |  |  | 100 µg/mL |  | glucose uptake | 28.6%
Cc1cc(OC(C)C)ccc1C(=O)C(C)(C)NC(=O)c1sccc1C | Botrytis cinerea | conidial germination | B05.10 | 1 µg/mL |  | inhibition | 66.1 ± 10%
C=C[C@]1(C)C[C@@H](OC(=O)CS[C@@H]2C[C@H]3CC[C@@H](C2)N3C)[C@]2(C)[C@H](C)CC[C@]3(CCC(=O)[C@H]32)[C@@H](C)[C@@H]1O | Streptococcus viridans |  | 10 clinical isolates |  |  | MIC50 | 0.0312 µg/mL (≈ 0.0604 µM)
CCCCCOc1ccc(-c2ccc(-c3ccc(C(=O)N[C@H]4C[C@@H](O)[C@@H](OCC[N+](C)(C)C)NC(=O)[C@@H]5[C@@H](O)[C@@H](C)CN5C(=O)[C@H]([C@@H](C)O)NC(=O)[C@H]([C@H](O)[C@@H](O)c5ccc(O)cc5)NC(=O)[C@@H]5C[C@@H](O)CN5C(=O)[C@H]([C@@H](C)O)NC4=O)cc3)cc2)cc1 | Candida glabrata |  | 5592, neutropenic mouse, disseminated candidiasis | dose not given, average 24 h AUC over 7 days |  | total AUC/MIC for 1 log kill | 114
CN[C@H](CC(C)C)C(=O)N[C@H]1C(=O)N[C@@H](CC(N)=O)C(=O)N[C@H]2C(=O)N[C@H]3C(=O)N[C@H](C(=O)N[C@H](C(=O)O)c4cc(O)cc(O)c4-c4cc3ccc4O)[C@H](O)c3ccc(c(Cl)c3)Oc3cc2cc(c3O[C@@H]2O[C@H](CO)[C@@H](O)[C@H](O)[C@H]2O[C@H]2C[C@](C)(N)[C@H](O)[C@H](C)O2)Oc2ccc(cc2Cl)[C@H]1O | Streptococcus pyogenes | broth microdilution |  |  |  | MBC | 2 µg/mL (≈ 1.38 µM)
N#CC(=C1C=CC(=NOC(=O)OCc2ccccc2)C=C1)c1ccccc1 | Candidozyma auris |  | ATCC MYA-5001 | concentration not given |  | antifungal activity | active
CC1=NN(c2ccccn2)C(=O)C1=NNc1ccc(S(N)(=O)=O)cc1 | Saccharomyces cerevisiae |  |  | 500 µg/mL |  | glucose uptake | 25.2%
c1cnc2c(c1)ccc1cccnc12 | Taenia solium | trypan blue uptake | viable cysts in vitro | 50 µg/mL |  | cysticidal efficacy | 100%
CO/N=C(\C(=O)N[C@@H]1C(=O)N2C(C(=O)O)=C(CSc3nc(=O)c(O)nn3C)CS[C@H]12)c1csc(N)n1 | Neisseria gonorrhoeae | broth microdilution | WHO P | 1.5 h |  | MIC | 1 µg/mL (≈ 1.8 µM)
CC1=NN(c2cc(Cl)ccc2Cl)C(=O)C1=NNc1ccc(S(N)(=O)=O)cc1 | Saccharomyces cerevisiae |  |  | 100 µg/mL |  | glucose uptake | 53.1%
COC(=O)[C@H](Cc1c[nH]c2ccccc12)NCc1cc2ccccc2nc1SC | Pseudomonas aeruginosa |  |  | 128 µg/mL, together with: pentamidine 50 µM | reference: control | growth | 79.8%
CC(C)[C@@H]1NC(=O)[C@@H](CCCNC(=N)N)NC(=O)[C@H]([C@@H](C)O)NC(=O)[C@@H](CCCN)NC(=O)[C@H](Cc2ccccc2)NC(=O)[C@@H](Cc2ccccc2)NC1=O | Naegleria fowleri |  |  | trophozoites |  | IC50 | > 16 µg/mL
CC1=NN(c2ccc(Cl)cc2)C(=O)C1=NNc1ccc(S(N)(=O)=O)cc1 | Saccharomyces cerevisiae |  |  | 200 µg/mL |  | glucose uptake | 30.5%
CN[C@H](CC(C)C)C(=O)N[C@H]1C(=O)N[C@@H](CC(N)=O)C(=O)N[C@H]2C(=O)N[C@H]3C(=O)N[C@H](C(=O)N[C@H](C(=O)O)c4cc(O)cc(O)c4-c4cc3ccc4O)[C@H](O)c3ccc(c(Cl)c3)Oc3cc2cc(c3O[C@@H]2O[C@H](CO)[C@@H](O)[C@H](O)[C@H]2O[C@H]2C[C@](C)(N)[C@H](O)[C@H](C)O2)Oc2ccc(cc2Cl)[C@H]1O | Staphylococcus aureus |  | USA300 LAC, mice, meningitis, brain |  |  | bacterial load | 6.96 log CFU/brain and 7.38 log CFU/brain and 7.19 log CFU/brain and 7.4 log CFU/brain and 7.16 log CFU/brain and 7.72 log CFU/brain
CC1=NN(c2ccc(F)cc2)C(=O)C1=NNc1ccc(S(N)(=O)=O)cc1 | Saccharomyces cerevisiae |  |  | 10 µg/mL |  | glucose uptake | 31.022 ± 0.000702%
N=C(N)c1ccc(OCCC(CCOc2ccc(C(=N)N)cc2)c2ccccc2)cc1 (centres unmarked) | Escherichia coli |  | BW25113 | concentration not given, lowest-FICI combination, together with: novobiocin |  | MIC in combination | 25 µg/mL

A few entries again:
Compound | organism | test | system | setting | how to read | quantity | value
CC1=NN(c2cccc([N+](=O)[O-])c2)C(=O)C1=NNc1ccc(S(N)(=O)=O)cc1 | Saccharomyces cerevisiae |  |  | 100 µg/mL |  | glucose uptake | 28.6%
CO/N=C(\C(=O)N[C@@H]1C(=O)N2C(C(=O)O)=C(CSc3nc(=O)c(O)nn3C)CS[C@H]12)c1csc(N)n1 | Neisseria gonorrhoeae | broth microdilution | WHO P | 1.5 h |  | MIC | 1 µg/mL (≈ 1.8 µM)
